Results gathered from unrelated publications.
Parts stem from different laboratories: compare values within a part only. Substitutions count along the parent as printed.

Block 1 — method: universal PBM; molecule type: double-stranded DNA, one strand shown; matrix: in vitro; tested at: not given; direction: higher = stronger binding
Target: Sal-like protein 4, full length isoform B (SALL4, Homo sapiens, UniProt Q9UJQ4-2, residues 1-616)
Notes: 8-mer, flanks averaged, mean of replicates
Sequence	E-score
CCGGCTGA	-0.341
ATCTTCGA	0.145
GACCGTAC	-0.211
CTGATCCA	0.0307
CACAGAAA	0.024
ATCCCGAG	-0.152

Block 2 — target: CCND1, cyclin fold, Cln2 fusion (human); method: yeast growth competition, sequencing; matrix: yeast; notes: strong parent motif; reference: not given; direction: higher = stronger binding
Starting sequence: INSM1 docking peptide (human); PKAIRKLHFEDEV; partner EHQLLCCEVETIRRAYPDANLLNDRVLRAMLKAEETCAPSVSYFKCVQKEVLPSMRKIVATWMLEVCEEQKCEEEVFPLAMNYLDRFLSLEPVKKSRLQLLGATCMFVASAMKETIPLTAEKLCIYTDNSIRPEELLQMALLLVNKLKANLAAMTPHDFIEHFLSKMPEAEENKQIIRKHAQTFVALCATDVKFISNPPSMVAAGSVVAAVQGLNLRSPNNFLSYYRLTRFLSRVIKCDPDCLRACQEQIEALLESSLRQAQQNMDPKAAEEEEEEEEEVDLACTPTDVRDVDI
Change	normalised enrichment score
PKALRKLHFEDEV [I4L]	1.04
PKTIRKLHFEDEV [A3T]	2.11
PKAWRKLHFEDEV [I4W]	0.28

Block 3 — method: protein-binding microarray; molecule type: double-stranded DNA, one strand shown; matrix: in vitro; tested at: 2200 nM top; notes: 60-bp whole probe; added: salmon DNA 0.4 mg/ml; reference: random background probes; direction: higher = stronger binding; all sequences stand within: GCCTAGCAC … GTCTTGATTCGCTTGACGCTGCTG
Target: Interferon regulatory factor 7, full length, phosphomimetic (IRF7, Homo sapiens, UniProt Q92985, residues 1-503, S471D/S472D/S475D/S476D/S477D/S483D/S484D/S487D)
Residues (chain): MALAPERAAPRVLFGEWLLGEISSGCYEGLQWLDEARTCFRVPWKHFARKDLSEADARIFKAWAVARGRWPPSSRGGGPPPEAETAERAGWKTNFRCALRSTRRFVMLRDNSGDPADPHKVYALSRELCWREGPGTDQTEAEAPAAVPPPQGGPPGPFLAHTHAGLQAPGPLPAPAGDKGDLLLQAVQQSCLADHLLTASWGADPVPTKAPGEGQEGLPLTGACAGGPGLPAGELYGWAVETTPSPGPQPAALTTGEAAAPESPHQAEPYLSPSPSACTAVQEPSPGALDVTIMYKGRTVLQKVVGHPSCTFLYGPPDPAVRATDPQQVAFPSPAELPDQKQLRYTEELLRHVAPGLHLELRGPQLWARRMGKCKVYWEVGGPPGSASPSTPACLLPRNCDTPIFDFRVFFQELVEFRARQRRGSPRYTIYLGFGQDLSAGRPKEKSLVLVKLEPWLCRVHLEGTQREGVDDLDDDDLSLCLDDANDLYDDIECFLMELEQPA
Sequence	fitted relative affinity [z-score]
GATGATTTCAGTTTCGAGACGTGCTAG	6.13
TTAGGTTTCCTTCTCCCTTAGTGCTAG	2.79
GACGATTTCGCGTTTCGAGACGTGCTA	3.05
CTCTAAGACACAAGATCAGAGTGCTAG	-0.55
TCAGCTTTACTGATGGCACTGTGCTAG	0.29

Mixed results
Molecule	target	test	system	conditions	scale	quantity	value
PhoQ, residues 284 288 289 292 302 303 WSHMKI	PhoP, residues 12 14 15 18 19 NQAHL (Escherichia coli, UniProt P23836)	Sort-seq, item: YFP reporter	E. coli	PhoQ-PhoP variant library, added: 10 µM Mg2+	reference: high Mg2+ state, higher = stronger signaling	fold induction	1.77

Repeated from above (block 1):
Sequence	E-score
CACAGAAA	0.024
